Measurements gathered from unrelated publications.
Protocols differ between the studies behind these lines. Values after ≈ are worked out from the molar mass of the structure shown.
Organism: Mycobacterium tuberculosis variant bovis BCG
Effect on: microbial growth

CC(C)CNc1cnc(C(=O)O)cn1  IC50 (ATCC35734 BCG; 5 days): 400 µM
CC1=C(c2nc(C)no2)N2C(=O)[C@@H](NC(=O)COc3ccccc3)[C@H]2SC1  MIC90 (BCG): > 100 µg/mL
CCCCCCn1c2c([n+](CCCCCC)c1C)C(=O)c1ccccc1C2=O  MIC90 (BCG; 5 days): ≤ 0.3 µM
CCCCCCCCn1cc(CN2CCC3(CC2)OCCS3)c2ccc(OC)cc21  MIC50 (BCG): 0.36 µM (≈ 0.155 µg/mL)
CCCCCC[n+]1c2c(n(CC(C)C)c1C)C(=O)c1ccccc1C2=O  MIC90 (BCG; 5 days): ≤ 0.3 µM
O=C(O)c1nccnc1NC1CCCC1  IC50 (ATCC35734 BCG; 5 days): 400 µM
CCCCCCCCn1c2c([n+](CCCC)c1C)C(=O)c1ccccc1C2=O  MIC90 (BCG; 5 days): ≤ 0.3 µM
O=C(O)c1cncc(Cl)n1  IC50 (ATCC35734 BCG; 5 days): 1000 µM
O=C1C=CC(=O)c2ccccc21  MIC90 (BCG; 5 days): 50 µM
CCCCCCCCn1cc(CN2CCC3(CC2)SCCCS3)c2ccc(OC)cc21  MIC50 (BCG): 0.28 µM (≈ 0.129 µg/mL)
O=C(O)c1ccccc1  IC50 (ATCC35734 BCG; 5 days): 2200 µM
CCCCCCCCn1cc(CN2CCC3(CC2)SCCS3)c2ccc(OC)cc21  MIC50 (BCG): 0.29 µM (≈ 0.13 µg/mL)
Cc1ccc(-c2nc3ccc(C)cn3c2CC(=O)N(C)C)cc1  MIC (BCG; 6 days): 49 µM (≈ 15.1 µg/mL)

Some of these lines once more:
O=C(O)c1nccnc1NC1CCCC1  IC50 (ATCC35734 BCG; 5 days): 400 µM
CCCCCCCCn1c2c([n+](CCCC)c1C)C(=O)c1ccccc1C2=O  MIC90 (BCG; 5 days): ≤ 0.3 µM
